Results gathered from unrelated publications.
Compare with care: the assays were run in different laboratories.
Cell line: PANC-1

Compound	assay	setting	IC50
CCCCCCCCCCCCCCCC(=O)OCCN1CCN(c2cc(Nc3ncc(C(=O)Nc4c(C)cccc4Cl)s3)nc(C)n2)CC1	cell viability, MTT	72 h	0.716 µM
Cc1cc(C)cc(/C=N/NC(=N)N/N=C/c2cc(C)cc(C)c2)c1	cell growth or viability, crystal violet	72 h	56.2 µM
C=C1CCC(=O)C(C)CCC2C1CC2(C)C(=O)C=CC(C)(C)O (centres unmarked)	cell growth or viability, CCK-8	72 h	7.25 µM
N=C(N/N=C/c1cc2ccccc2c2ccccc12)N/N=C/c1cc2ccccc2c2ccccc12	cell growth or viability, crystal violet	72 h	151 µM
c1ccc(-c2cc(-c3ccc(-n4cc(-c5ccc6sc7ccccc7c6c5)nn4)cc3)cc(-c3ccccn3)n2)nc1	cell growth or viability, MTS	72 h	0.78 µM
C=C1CCC(O)C(C)=CCC2C1CC2(C)C(=O)C=CC(C)(C)O (centres unmarked)	cell growth or viability, CCK-8	72 h	~19.1 µM
CC1(C)c2ccccc2-c2ccc(-c3cn(-c4ccc(-c5cc(-c6ccccn6)nc(-c6ccccn6)c5)cc4)nn3)cc21	cell growth or viability, MTS	72 h	1.87 µM
N=C(N/N=C/c1ccccc1)N/N=C/c1ccccc1	cell growth or viability, crystal violet	72 h	29.6 µM
Cc1nc(Nc2ncc(C(=O)Nc3c(C)cccc3Cl)s2)cc(N2CCN(CCOC(=O)[C@@H](N)CCC(=O)O)CC2)n1	cell growth or viability, MTT	72 h	64.1 µM
N=C(N/N=C/c1ccc(Cl)cc1)N/N=C/c1ccc(Cl)cc1	cell growth or viability, crystal violet	72 h	59.1 µM
CCCCn1cc(C(=O)O)c(=O)c2cc(F)c(Nc3ccc(OC)cc3OC)c(N)c21	cell growth or viability, SRB	72 h	> 200 µg/mL
O=[N+]([O-])c1ccc(/N=N/c2ccc(O)c(O)c2)cc1	cell growth or viability, resazurin	72 h	2.52 µM
COCCOc1cc2ncnc(Nc3cccc(-c4cn(-c5ccccc5S(N)(=O)=O)nn4)c3)c2cc1OCCOC	cell proliferation, CCK-8	72 h, hypoxia	57.1 µM
Cc1nc(Nc2ncc(C(=O)Nc3c(C)cccc3Cl)s2)cc(N2CCN(CCOC(=O)CCCCCCCCCCN)CC2)n1	cell growth or viability, MTT	72 h	5.92 µM
N=C(N/N=C/c1ccc2ccccc2c1)N/N=C/c1ccc2ccccc2c1	cell growth or viability, crystal violet	72 h	105 µM
C=C1CC[C@@H]2O[C@@]2(C)CC[C@H]2[C@H]1C[C@]2(C)C(=O)/C=C/C(C)(O)COC(C)=O (some centres unmarked)	cell growth or viability, CCK-8	72 h	5.24 µM
CCOC(=O)C1=CN([C@@H]2O[C@H](CO)[C@@H](O)[C@H]2O)C=CC1	cell growth or viability, CCK-8		121 µM
Oc1ccc(-c2csc(Cc3ccccc3)n2)c(O)c1	cell growth or viability, resazurin	72 h	32.8 µM
COC1=C(OC)C(O)C(CC=C(C)CCC=C(C)CCC=C(C)C(=O)O)C(C)C1=O (centres unmarked)	cell growth or viability, MTS	48 h	> 25 µM
N=C(N/N=C/c1cncnc1)N/N=C/c1cncnc1	cell growth or viability, crystal violet	72 h	114 µM

A few entries again:
Compound	assay	setting	IC50
CC1(C)c2ccccc2-c2ccc(-c3cn(-c4ccc(-c5cc(-c6ccccn6)nc(-c6ccccn6)c5)cc4)nn3)cc21	cell growth or viability, MTS	72 h	1.87 µM
N=C(N/N=C/c1ccccc1)N/N=C/c1ccccc1	cell growth or viability, crystal violet	72 h	29.6 µM
